Assay results from different studies.
A part holds a random share of what one study measured. Positions count from the first letter of the parent shown.

Study 1
Target: Histone acetyltransferase KAT6A, both winged helices, GST fusion (KAT6A, Homo sapiens, UniProt Q92794, residues 1-181)
Method: protein binding microarray
Form: double-stranded DNA, one strand shown
Medium: in vitro
Concentration: not given
Notes: 8-mer, flanks averaged, mean of 2 arrays, mostly near background
Baseline: not given
Reading: higher = stronger binding
Residues (chain): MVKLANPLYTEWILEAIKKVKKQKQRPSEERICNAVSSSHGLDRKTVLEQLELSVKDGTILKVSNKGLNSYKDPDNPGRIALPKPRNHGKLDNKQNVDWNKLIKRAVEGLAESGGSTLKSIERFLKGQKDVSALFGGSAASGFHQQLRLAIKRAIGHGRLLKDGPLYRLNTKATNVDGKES
Sequence | E-score
CGGAGGAG | -0.0689
ATTCCATC | -0.0312
AACAACGG | 0.158
ACCGGAGA | 0.0444
CGGCTGAG | 0.0297
GAGTCGGA | 0.0563
AGCCACTG | -0.13
ATCCCTGC | -0.129
CCTTTAAG | -0.205
AAACACGT | -0.135
CATACGAC | -0.126
CTGGGCTC | -0.252
ATATCTAC | 0.0287
ACACAAGA | -0.181
CGTCGCAA | 0.198
AGGCTTAC | -0.0274
AGACAATC | -0.101
CGCACCCG | 0.288
ACCTTTTA | -0.0863
GGTGAAAA | 0.00161
GACCCTCC | 0.00344
CGTTGCAA | -0.114
CCATTACC | -0.0367
AGGTGCGC | 0.146
GTCCCTTA | 0.0563

Study 2
Target: ABI1, truncated, D143A, DHFR fusion (Arabidopsis thaliana)
Method: DHFR PCA, deep sequencing
Medium: yeast
Notes: methotrexate growth selection, single substitutions
Together with: (+)-ABA 0.11 µM
Baseline: wild-type fitted maximum
Reading: higher = stronger binding
Starting sequence: PYL1, truncated, DHFR fusion (Arabidopsis thaliana); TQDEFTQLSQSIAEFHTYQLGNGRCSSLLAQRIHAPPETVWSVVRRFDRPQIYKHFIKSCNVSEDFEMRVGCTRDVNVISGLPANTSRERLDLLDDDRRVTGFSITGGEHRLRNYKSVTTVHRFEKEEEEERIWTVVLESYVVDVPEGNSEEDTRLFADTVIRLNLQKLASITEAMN
Substitution | relative binding score [%]
L169G | 0.0782
T101S | 0.222
N77I | 51.6
F5Y | 35.6
D144L | -2.9
R155M | 9.62
S11V | 41.8
T135K | -4.15
G23P | -1.02
F157D | -1.23
I33L | -1.45
L29D | 4.28
A170L | -0.0815
K116W | -4.12

Study 3
Target: Ras GTPase-activating protein-binding protein 1, full length (G3BP1, Homo sapiens, UniProt Q13283)
Chain of UniProt Q13283 (whole entry, looked up): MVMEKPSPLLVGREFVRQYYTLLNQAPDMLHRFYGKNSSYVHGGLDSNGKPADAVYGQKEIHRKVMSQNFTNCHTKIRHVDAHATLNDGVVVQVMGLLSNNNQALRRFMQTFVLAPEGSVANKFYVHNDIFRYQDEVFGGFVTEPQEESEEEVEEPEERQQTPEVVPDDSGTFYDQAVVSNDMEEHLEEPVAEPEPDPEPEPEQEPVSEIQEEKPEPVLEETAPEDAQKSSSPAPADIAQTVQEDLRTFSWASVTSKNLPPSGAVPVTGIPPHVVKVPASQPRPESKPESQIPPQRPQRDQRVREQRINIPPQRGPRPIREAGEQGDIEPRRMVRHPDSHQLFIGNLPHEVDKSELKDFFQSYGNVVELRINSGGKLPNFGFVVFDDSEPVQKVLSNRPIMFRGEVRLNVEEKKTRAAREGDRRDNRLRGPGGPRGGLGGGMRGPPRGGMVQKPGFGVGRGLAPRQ
Method: RNA Bind-n-Seq
Form: RNA
Medium: in vitro
Concentration: 200 nM
Notes: whole 134-nt RNA, ends assumed
Together with: 150 mM LiCl
Baseline: input library
Reading: higher = stronger binding
Each molecule: 7-deaza-guanosine replaces G
Shared flanks, not repeated: GGGAGUUCUACAGUCCGACGAUC … UGGAAUUCUCGGGUGUCAAGG
Sequence | log2 enrichment
UUUAGGUGUUAGACGGUACCGACAACCAGUAUUUGGGCCUGCAGAUUGGACAGCCCCAGGAUGAAGAUGAGGAAGCCACAGGUAUUCUUC | -2.72
UGGGAGGUGGAUUUUGUUUAUUUGUUUAGCUCAUUUCCAGGGGUGGGAAUUUUUUUUUAAUAUGUGUCAUGAAUAAAGUUGUUUUUGAAA | -0.138
UCCUGUGCUACACAUCGUAUGUACCGAAUCGGGAAAAAGGGAAAAAAAGGGUUUUUGGGAAAGUAUUAUGUUACGCCGUUCGGAUCUGCA | -0.911
AAGUCCUGUGCUACACAUCGUAUGUACCGAAUCGGGGUUUGGGUUUGGGUUUGGGGAAAGUAUUAUGUUACGCCGUUCGGAUCUGCACUU | -0.205
CCUGUGCUACACAUCGUAUGUACCGAAUCGGGAAAAAAAGGGAAAAAAAGGGAAAAAAAGGAAAGUAUUAUGUUACGCCGUUCGGAUCUG | 0.0479
CCUGUGCUACACAUCGUAUGUACCGAAUCGGGUUUUUUUGGGUUUUUUUGGUUUUUUUGGAAAGUAUUAUGUUACGCCGUUCGGAUCUGC | 0.936
CAAGUCCUGUGCUACACAUCGUAUGUACCGAAUCGGUUUUUUUGGAAAGGAAAGGAAAGUAUUAUGUUACGCCGUUCGGAUCUGCACUUC | -0.772

Study 4
Target: CCNB3, cyclin fold, Cln2 fusion (human)
Method: yeast growth competition, sequencing
Medium: yeast
Notes: weak parent motif
Baseline: not given
Reading: higher = stronger binding
Starting sequence: RBL1 docking peptide (human); GSAKRRLFGEDPP; partner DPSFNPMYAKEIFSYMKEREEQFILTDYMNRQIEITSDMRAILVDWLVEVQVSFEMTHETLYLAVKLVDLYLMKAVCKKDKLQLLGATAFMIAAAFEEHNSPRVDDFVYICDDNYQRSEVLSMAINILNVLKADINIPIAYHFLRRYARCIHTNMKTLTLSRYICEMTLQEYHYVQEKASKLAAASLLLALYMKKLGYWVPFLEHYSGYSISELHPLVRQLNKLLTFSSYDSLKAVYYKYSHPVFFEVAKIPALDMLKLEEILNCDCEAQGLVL
Substitution | normalised enrichment score
GSAKRRLFGEDPE [P13E] | -0.442
GSAKRRLFGEDYP [P12Y] | 0.789
GSAKRDLFGEDPP [R6D] | -0.0675
GEAKRRLFGEDPP [S2E] | 0.555
GSAKRRLFGETPP [D11T] | 0.793
NSAKRRLFGEDPP [G1N] | 0.317
GSAGRRLFGEDPP [K4G] | 0.339
GSAKKRLLGEDPP [R5K F8L] | -0.0414
GSAKRCLFGEDPP [R6C] | 0.274
GSAKRRGFGEDPP [L7G] | 0.337
GSAKDRLFGEDPP [R5D] | 0.12
GSAKRRLFGWDPP [E10W] | 0.325
GSAKRRLFGEEPP [D11E] | 0.478
GSAKRMLFGEDPP [R6M] | 0.229
GSAKRQLFGEDPP [R6Q] | 0.0995
GSAKRRLFGEDDP [P12D] | 0.777
ESAKRRLFGEDPP [G1E] | 0.717
GSAKRRLFGERPP [D11R] | 0.213
GSAIRRLFGEDPP [K4I] | 0.424
GSAKRRLFIEDPP [G9I] | 0.937
GSAKNRLFGEDPP [R5N] | 0.432
GSVKRRLFGEDPP [A3V] | 1.45
CSAKRRLFGEDPP [G1C] | 0.314
GSAKRRLTGEDPP [F8T] | 0.222
GSADRRLFGEDPP [K4D] | 0.316

Some of these lines once more (study 4):
Substitution | normalised enrichment score
GEAKRRLFGEDPP [S2E] | 0.555
GSAKRRLFGETPP [D11T] | 0.793
NSAKRRLFGEDPP [G1N] | 0.317
GSAGRRLFGEDPP [K4G] | 0.339
GSAKKRLLGEDPP [R5K F8L] | -0.0414
GSAKRCLFGEDPP [R6C] | 0.274
GSAKRRGFGEDPP [L7G] | 0.337
